Experimental data of several laboratories.
Lines come from different studies, so protocols differ. Numbers after ± are the reported error. In brackets after ≈: the same amount, converted by molar mass.

SMILES | organism | test | test system | setting | measurement | result
Cc1ccccc1-c1nnn(C23CC4CC(CC(C4)C2)C3)n1 | Influenza A virus | viral replication, inhibitor | A/Puerto Rico/8/34 (H1N1) | – | IC50 | > 300 mg/L
CN[C@@H]1[C@H](O)[C@H](NC)[C@H]2O[C@]3(O)[C@H](O[C@@H]2[C@H]1O)O[C@H](C)C[C@H]3NC(=O)Cc1cc(Cl)ccn1 | Mycobacterium tuberculosis | microbial growth | ATCC35837 | – | MIC | 1.6 mg/L (≈ 3.29 µM)
C1CC2C3C4C5CCC4C24CNCC54C13 | Influenza A virus | viral replication | A/PR/8/34 cl3 | pH 5.7 | EC50 | > 100 µM
CN[C@@H]1[C@H](O)[C@H](NC)[C@H]2O[C@]3(O)[C@H](O[C@@H]2[C@H]1O)O[C@H](C)C[C@H]3NC(=O)Cc1cscn1 | Mycobacterium tuberculosis | microbial growth, broth dilution | H37RV | – | MIC | 0.8 mg/L (≈ 1.74 µM)
Nc1nc(SCCCN2CCCCC2)nc2sc3c(c12)CCCCC3 | Mycobacterium tuberculosis | – | K204 | 100 µM, compound toxic alone, together with: kanamycin | kanamycin MIC | toxic
COc1ccc(CNC23CC4CC(CC(C4)C2)C3)c(O)c1 | influenza A virus | viral replication | A/WSN/33 M2 N31S | – | EC50 | 1.13 ± 0.03 µM
CCC1(CC)C2CC3CC(C2)CC1(NC)C3 | Influenza A virus | viral replication | A/X-31 (H3N2) | – | EC50 | > 100 µM
CCC1CCc2c(sc3nc(SCC(=O)NCCN(CC)CC)nc(N)c23)C1 (centres unmarked) | Mycobacterium tuberculosis | – | K204 | 100 µM, compound toxic alone, together with: kanamycin | kanamycin MIC | toxic
COc1ccc(CNc2ccc(C34CC5CC(CC(C5)C3)C4)cc2)c(O)c1 | influenza A virus | viral replication | A/WSN/33 M2 N31S | – | EC50 | 0.66 ± 0.21 µM
CCC1CCc2c(sc3nc(SCCN4CCCCC4)nc(N)c23)C1 (centres unmarked) | Mycobacterium tuberculosis | – | K204 | 100 µM, compound toxic alone, together with: kanamycin | kanamycin MIC | toxic
CCC1(CC)C2CC3CC(C2)CC1(N(C)C)C3 | Influenza A virus | viral replication | A/X-31 (H3N2) | – | EC50 | > 100 µM
CN[C@@H]1[C@H](O)[C@H](NC)[C@H]2O[C@]3(O)[C@H](O[C@@H]2[C@H]1O)O[C@H](C)C[C@H]3NC(=O)Cc1ccc(Cl)cn1 | Mycobacterium tuberculosis | microbial growth | ATCC35837 | – | MIC | 1.6 mg/L (≈ 3.29 µM)
CC(C)(C)C1CCc2c(sc3nc(SCCN4CCCCC4)nc(N)c23)C1 (centres unmarked) | Mycobacterium tuberculosis | – | K204 | 100 µM, compound toxic alone, together with: kanamycin | kanamycin MIC | toxic
CCC1(CC)C2CC3CC(C2)CC1(N)C3 | Influenza A virus | viral replication | A/X-31 (H3N2) | – | EC50 | > 100 µM

Some of these lines once more:
SMILES | organism | test | test system | setting | measurement | result
Cc1ccccc1-c1nnn(C23CC4CC(CC(C4)C2)C3)n1 | Influenza A virus | viral replication, inhibitor | A/Puerto Rico/8/34 (H1N1) | – | IC50 | > 300 mg/L
